Published values collected from several papers.
A part holds a random share of what one study measured. Changes are numbered by the printed parent chain.

Study 1 — technique: RNA Bind-n-Seq; form: RNA; medium: in vitro; tested at: 200 nM; setting: whole 134-nt RNA, ends assumed; with: 150 mM LiCl; baseline: input library; direction: higher = stronger binding; quantity: log2 enrichment; all molecules: 7-deaza-guanosine replaces G
Target: Ras GTPase-activating protein-binding protein 1, full length (G3BP1, Homo sapiens, UniProt Q13283)
UniProt Q13283, sequence (whole entry, looked up): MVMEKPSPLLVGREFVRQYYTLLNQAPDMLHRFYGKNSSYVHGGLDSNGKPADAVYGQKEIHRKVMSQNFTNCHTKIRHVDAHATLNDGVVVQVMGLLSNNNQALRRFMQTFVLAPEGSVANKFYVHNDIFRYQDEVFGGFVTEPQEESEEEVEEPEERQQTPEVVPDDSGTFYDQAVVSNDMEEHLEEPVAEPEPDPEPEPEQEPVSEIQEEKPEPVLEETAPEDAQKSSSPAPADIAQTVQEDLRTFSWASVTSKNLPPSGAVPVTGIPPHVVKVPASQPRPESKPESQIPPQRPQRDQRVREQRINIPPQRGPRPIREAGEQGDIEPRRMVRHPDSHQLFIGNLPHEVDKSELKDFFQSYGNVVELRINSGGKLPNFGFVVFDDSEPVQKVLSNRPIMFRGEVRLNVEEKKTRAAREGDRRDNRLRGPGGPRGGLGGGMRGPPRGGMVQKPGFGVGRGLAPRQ
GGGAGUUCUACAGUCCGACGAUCAAGUCCUGUGCUACACAUCGUAUGUACCGAAUCGGGUUUGGGGUUUGGGUUUGGGGAAAGUAUUAUGUUACGCCGUUCGGAUCUGCACUUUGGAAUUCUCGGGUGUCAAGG: -0.412
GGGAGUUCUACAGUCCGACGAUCAAGUCCUGUGCUACACAUCGUAUGUACCGAAUCGGGGUUUGGGGAAAGGGGUGGGGAAAGUAUUAUGUUACGCCGUUCGGAUCUGCACUUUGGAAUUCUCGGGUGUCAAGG: -0.464
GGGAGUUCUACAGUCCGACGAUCUCCUGUGCUACACAUCGUAUGUACCGAAUCGGGAAAAAGGGAAAAAGGGUUUUUUUGGGAAAGUAUUAUGUUACGCCGUUCGGAUCUGCAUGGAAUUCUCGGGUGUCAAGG: -0.653
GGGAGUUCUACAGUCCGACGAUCAAGUCCUGUGCUACACAUCGUAUGUACCGAAUCGGUUUUGGGUUUUGGUUUUGGGGAAAGUAUUAUGUUACGCCGUUCGGAUCUGCACUUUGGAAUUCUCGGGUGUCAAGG: -0.506
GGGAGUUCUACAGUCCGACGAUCUGGGAGGUGGAUUUUGUUUAUUUUUUUAGCUCAUUUCCAGGGGUGGGAAUUUUUUUUUAAUAUGUGUCAUGAAUAAAGUUGGUUUUGAAAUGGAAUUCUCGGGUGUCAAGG: 0.165
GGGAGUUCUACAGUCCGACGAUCGCAGGAAGUAAAAACAAAUGGAAAUGCUUCGGAUAGUGGCAGGGGUGGGGGUUGCUAAGGAAAGGGUGGGAUGGGAGUGUGUAAAGAGUUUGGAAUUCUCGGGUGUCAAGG: 0.0957
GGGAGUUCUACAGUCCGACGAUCUGGCCCUGGUGGCAUGCGCGGAGGAAGAGGUGGCCUCAUGGAUCGUGGUGGUCCCGGUGGAAUGUUCAGAGGUGGCCGUGGUGGAGACAGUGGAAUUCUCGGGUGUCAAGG: 0.183
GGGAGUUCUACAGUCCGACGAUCCCUCAAGUCCUGUGCUACACAUCGUAUGUACCGAAUCGGGAAGGAAGGGAAGGAAAGUAUUAUGUUACGCCGUUCGGAUCUGCACUUCCAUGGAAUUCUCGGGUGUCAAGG: -0.331

Study 2 — technique: DHFR PCA, dose-response; medium: yeast; setting: Hill fit, mean, not affinity; with: (+)-ABA, dose series; direction: lower = more sensitive; quantity: ABA EC50
Target: ABI1, truncated, D143A, DHFR fusion (Arabidopsis thaliana, UniProt P49597)
Starting sequence: PYL1, truncated, DHFR fusion (Arabidopsis thaliana, UniProt Q8VZS8); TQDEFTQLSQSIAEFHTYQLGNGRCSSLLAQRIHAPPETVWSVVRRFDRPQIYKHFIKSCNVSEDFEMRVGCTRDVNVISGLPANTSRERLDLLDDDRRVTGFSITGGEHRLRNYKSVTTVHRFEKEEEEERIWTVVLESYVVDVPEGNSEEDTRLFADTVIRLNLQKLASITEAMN
K168T: 0.857 µM
D65W: 23 µM
F66D: 6.47 µM
D3Y: 12.9 µM
V43T: 23.9 µM
K126W: 4.16 µM
V142S: 2.61 µM
A13V: 4.45 µM
L166M: 13.7 µM
V142N: 19.6 µM
K116D: 748 µM
D96V: 185 µM
E128I: 3.87 µM
K58F: 31.9 µM
R99G: 25.9 µM
M68R: 34.1 µM
H16R: 583 µM
S87A: 21.6 µM
D65V: 11.1 µM

Study 3 — technique: universal PBM; form: double-stranded DNA, one strand shown; medium: in vitro; tested at: 600 nM; direction: higher = stronger binding; quantity: E-score
Target: Sal-like protein 4, full length isoform A (SALL4, Homo sapiens, UniProt Q9UJQ4, residues 1-1053)
UniProt Q9UJQ4, sequence (whole entry, looked up): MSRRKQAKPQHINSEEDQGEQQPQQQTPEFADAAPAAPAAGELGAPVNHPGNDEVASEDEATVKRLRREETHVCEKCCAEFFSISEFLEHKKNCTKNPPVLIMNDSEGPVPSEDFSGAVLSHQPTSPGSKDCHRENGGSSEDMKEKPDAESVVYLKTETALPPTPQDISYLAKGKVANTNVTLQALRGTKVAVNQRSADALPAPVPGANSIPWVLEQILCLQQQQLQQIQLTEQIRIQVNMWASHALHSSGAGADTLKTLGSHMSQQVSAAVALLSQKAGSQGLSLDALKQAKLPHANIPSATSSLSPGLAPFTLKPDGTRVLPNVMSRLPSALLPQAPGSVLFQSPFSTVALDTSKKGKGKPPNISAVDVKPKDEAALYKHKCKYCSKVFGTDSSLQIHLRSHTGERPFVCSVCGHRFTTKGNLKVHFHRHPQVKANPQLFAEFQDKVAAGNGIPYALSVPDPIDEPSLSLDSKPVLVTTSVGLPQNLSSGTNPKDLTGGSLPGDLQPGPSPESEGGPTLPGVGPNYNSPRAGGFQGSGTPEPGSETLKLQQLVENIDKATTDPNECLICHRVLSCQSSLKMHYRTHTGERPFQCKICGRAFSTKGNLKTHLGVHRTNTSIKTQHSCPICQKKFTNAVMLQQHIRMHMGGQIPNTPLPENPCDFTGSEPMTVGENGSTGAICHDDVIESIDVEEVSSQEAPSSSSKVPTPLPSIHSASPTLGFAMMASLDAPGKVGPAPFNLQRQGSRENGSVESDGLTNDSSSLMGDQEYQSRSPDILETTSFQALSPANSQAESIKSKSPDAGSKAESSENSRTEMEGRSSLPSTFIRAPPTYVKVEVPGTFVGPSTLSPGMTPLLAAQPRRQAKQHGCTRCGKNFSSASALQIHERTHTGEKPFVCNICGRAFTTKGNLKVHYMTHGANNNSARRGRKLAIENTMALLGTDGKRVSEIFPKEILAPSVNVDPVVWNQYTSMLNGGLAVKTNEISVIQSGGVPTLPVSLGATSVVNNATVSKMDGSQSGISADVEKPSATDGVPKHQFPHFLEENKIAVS
Setting: 8-mer, flanks averaged, mean of replicates
CTCTCAGC: -0.22
AGATAGCT: 0.0162
CGCGTAGC: -0.272
CCTCTATA: 0.122
CATACACG: 0.141
AAGGAGCA: -0.0406
GCAAGTCC: -0.238
AATATGCC: 0.161
CGAGATAA: 0.113
AGTCTAAT: 0.196
GATCATAC: 0.0548
CCGGAGGA: -0.306
ATAGTAGA: 0.287
AGGCCCGC: -0.339
TCGAGAAA: 0.0665
GCAGTAAA: 0.106
CATCCTAG: -0.214
GAATATCA: 0.287

Study 4 — technique: protein binding microarray; form: double-stranded DNA, one strand shown; medium: in vitro; tested at: not given; baseline: not given; direction: higher = stronger binding; quantity: E-score
Target: Histone acetyltransferase KAT6A, winged helix 2, GST fusion (KAT6A, Homo sapiens, UniProt Q92794, residues 85-181)
Setting: 8-mer, flanks averaged, mean of 2 arrays, mostly near background
Construct (chain): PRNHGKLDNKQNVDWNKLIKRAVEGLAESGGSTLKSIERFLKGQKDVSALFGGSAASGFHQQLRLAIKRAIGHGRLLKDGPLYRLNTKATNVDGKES
GGTTTTAA: 0.0529
CGCGGGGA: 0.245
CGCCTTAA: 0.138
GCAGGGCC: 0.136
AACGCGGC: 0.105
CATCCGTA: 0.0139
GACAATCA: -0.0108
ACGTGTCA: -0.16
ATCTTCAC: 0.045
ATCTGAGC: -0.00838
ATAGGGTG: -0.206
CTTGCAAA: 0.131
ACTCGTCG: -0.0149
TCGCGGAA: 0.0662
GTCTGATA: -0.166
GGGAGGCA: -0.00444
AAAGACTG: -0.245
GTATCGTA: 0.0319
ACCGTATC: 0.111
CGTGTGTC: -0.082
ATCATACA: 0.114
AAGGCTTA: -0.226
TCATAGCA: 0.0357
CACCTTAC: -0.0283
AAGGCAAT: -0.0322

Study 5 — technique: protein-binding microarray; form: double-stranded DNA, one strand shown; medium: in vitro; tested at: 2200 nM top; setting: 60-bp whole probe; with: salmon DNA 0.4 mg/ml; baseline: random background probes; direction: higher = stronger binding; quantity: fitted relative affinity; shared flanks, not repeated: GCCTAGCAC … GTCTTGATTCGCTTGACGCTGCTG
Target: Interferon regulatory factor 7, full length, phosphomimetic (IRF7, Homo sapiens, UniProt Q92985, residues 1-503, S471D/S472D/S475D/S476D/S477D/S483D/S484D/S487D)
Residues (chain): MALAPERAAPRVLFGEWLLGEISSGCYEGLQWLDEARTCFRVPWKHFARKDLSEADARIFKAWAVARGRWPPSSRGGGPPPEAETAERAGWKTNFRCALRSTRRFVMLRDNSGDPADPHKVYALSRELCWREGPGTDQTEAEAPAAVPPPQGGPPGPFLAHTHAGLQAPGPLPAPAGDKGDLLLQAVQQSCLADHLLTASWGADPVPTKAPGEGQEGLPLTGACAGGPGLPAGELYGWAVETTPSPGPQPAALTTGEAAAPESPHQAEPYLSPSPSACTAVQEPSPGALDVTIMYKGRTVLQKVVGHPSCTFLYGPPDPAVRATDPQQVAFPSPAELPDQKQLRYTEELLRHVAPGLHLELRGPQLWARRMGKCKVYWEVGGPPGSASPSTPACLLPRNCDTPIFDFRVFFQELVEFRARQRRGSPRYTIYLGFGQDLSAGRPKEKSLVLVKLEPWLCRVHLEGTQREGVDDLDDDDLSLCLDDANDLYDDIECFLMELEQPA
TTAGGACTGGCACTGGGTTAGTGCTAG: -0.853 z-score
TTTGGTCTCGGTATCGGTTAGTGCTAG: 1.63 z-score
TTAGGTTTCGGTTTCGGTGAGTGCTAG: 14.5 z-score
TCAGGACTGGACTTTCGGTTAGTGCTA: 5.1 z-score
TTAGGGTTCCTTCTCCTTTAGTGCTAG: 0.867 z-score
TGTTGTCTGTGTTTCCTTGTGTGCTAG: 2.04 z-score
GACGGTATCCTTCTCCTTACGTGCTAG: 1.66 z-score
TTAGTTCTCCTTATCCTTTAGTGCTAG: 1.69 z-score
GACTGTTTCGGTCTCGGGACGTGCTAG: 4.86 z-score
TCAAGTTTCTCCTTTCGACTGTGCTAG: 3.84 z-score
GACAGTCTCGGTCTCGGGACGTGCTAG: 0.467 z-score
TTAGATCTCAGTATCGGTTAGTGCTAG: 0.512 z-score
AGGAAGATCATTCTCACTGCGTGCTAG: -0.23 z-score
TCTAATTTACTTTGGTTGGCGTGCTAG: 0.491 z-score
TTAGAACTGAGTATCGATTTGTGCTAG: 0.4 z-score
TTAGATTTCGGGACTGGATTCGTGCTA: 1.14 z-score
TTTCCTTTACATTCCCCATTGTGCTAG: 4.96 z-score
TTACAACTGAGACTGGATTAGTGCTAG: 0.0423 z-score

Study 6 — target: CCND3, cyclin fold, Cln2 fusion (human); technique: yeast growth competition, sequencing; medium: yeast; setting: weak parent motif; baseline: not given; direction: higher = stronger binding; quantity: normalised enrichment score
Starting sequence: MICAL3 docking peptide (human); LQLRRQLSFSEDS
L3I: 0.106
E11A: -0.0343
F9A: 0.0622
Q2W: -0.153
D12I: 0.283
F9T: -0.111
L7Y: -0.106
L7A: 0.0849
S8Q: 0.294
S8N: 0.249
S8I: 0.243
L7Q: 0.0372
S10N: 0.0946
Q2G: -0.000214
S10W: -0.422
Q6A: -0.289
L3F: 0.115
L7G: -0.00907
R5Y: 0.228
Q2F: 0.0411
R4A: 0.0835
F9I: -0.258
F9Y: -0.146
R4H: -0.155
Q6G: 0.0687

Some of these lines once more (study 5):
TTAGGTTTCGGTTTCGGTGAGTGCTAG: 14.5 z-score
GACAGTCTCGGTCTCGGGACGTGCTAG: 0.467 z-score
GACTGTTTCGGTCTCGGGACGTGCTAG: 4.86 z-score
TTTGGTCTCGGTATCGGTTAGTGCTAG: 1.63 z-score
TCAAGTTTCTCCTTTCGACTGTGCTAG: 3.84 z-score
TGTTGTCTGTGTTTCCTTGTGTGCTAG: 2.04 z-score
AGGAAGATCATTCTCACTGCGTGCTAG: -0.23 z-score
TTAGGGTTCCTTCTCCTTTAGTGCTAG: 0.867 z-score
TCAGGACTGGACTTTCGGTTAGTGCTA: 5.1 z-score
TTAGGACTGGCACTGGGTTAGTGCTAG: -0.853 z-score
GACGGTATCCTTCTCCTTACGTGCTAG: 1.66 z-score
TTAGATCTCAGTATCGGTTAGTGCTAG: 0.512 z-score
TTTCCTTTACATTCCCCATTGTGCTAG: 4.96 z-score
TTAGATTTCGGGACTGGATTCGTGCTA: 1.14 z-score
TCTAATTTACTTTGGTTGGCGTGCTAG: 0.491 z-score
TTAGAACTGAGTATCGATTTGTGCTAG: 0.4 z-score
